Results of several laboratories.
A part holds a random share of what one study measured. Substitutions count along the parent as printed.

Set 1
Target: CCND3, cyclin fold, Cln2 fusion (human)
Technique: yeast growth competition, sequencing
Sample: yeast
Notes: weak parent motif
Relative to: not given
Direction: higher = stronger binding
Starting sequence: E2F1 docking peptide (human); PPVKRRLDFETDH; partner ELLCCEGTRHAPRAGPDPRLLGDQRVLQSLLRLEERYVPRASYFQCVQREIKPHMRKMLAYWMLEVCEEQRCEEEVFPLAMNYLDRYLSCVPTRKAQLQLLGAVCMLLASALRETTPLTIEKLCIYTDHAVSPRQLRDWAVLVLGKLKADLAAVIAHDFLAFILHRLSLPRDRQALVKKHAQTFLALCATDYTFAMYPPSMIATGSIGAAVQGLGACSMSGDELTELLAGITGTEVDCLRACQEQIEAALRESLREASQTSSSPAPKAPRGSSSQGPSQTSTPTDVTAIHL
`PPVKRRYDFETDH [L7Y]` — result for “normalised enrichment score”: -0.0557.
For `PPCKRRLDFETDH [V3C]`, “normalised enrichment score” read 0.317.
Under “normalised enrichment score”, `PPVHRRLDFETDH [K4H]` is recorded as 0.217.
Under “normalised enrichment score”, `PPVKRDLDFETDH [R6D]` is recorded as -0.156.
For `PPWKRRLDFETDH [V3W]`, “normalised enrichment score” read 0.0963.
For `PPVKRRLDFRTDH [E10R]`, “normalised enrichment score” read 0.0399.
Under “normalised enrichment score”, `PPVKRRLDFITDH [E10I]` is recorded as 0.141.
`PPVFRRLDFETDH [K4F]` — result for “normalised enrichment score”: -0.131.
`PPVKWRLDFETDH [R5W]`: “normalised enrichment score” 0.402.
Under “normalised enrichment score”, `PPVKSRLDFETDH [R5S]` is recorded as -0.281.
`PPVKRRFDFETDH [L7F]` — result for “normalised enrichment score”: 0.178.
For `PPVKRRLDHETDH [F9H]`, “normalised enrichment score” read 0.144.
Under “normalised enrichment score”, `PPVKRRLDFPTDH [E10P]` is recorded as -0.0841.
`PCVKRRLDFETDH [P2C]`: “normalised enrichment score” 0.412.
`PPVKRRLDFETYH [D12Y]`: “normalised enrichment score” 0.369.
Under “normalised enrichment score”, `PPVKRRLDMETDH [F9M]` is recorded as 0.121.
Under “normalised enrichment score”, `PPVIRRLDFETDH [K4I]` is recorded as 0.25.
`PPVKRRLHFETDH [D8H]`: “normalised enrichment score” 0.00523.
Under “normalised enrichment score”, `PPVKRRLDFETGH [D12G]` is recorded as 0.42.
`PPVKRRLVFETDH [D8V]` — result for “normalised enrichment score”: 0.348.
`PPVKRRLDFEYDH [T11Y]`: “normalised enrichment score” 0.308.
`PPVKRLLDFETDH [R6L]`: “normalised enrichment score” 0.0689.
`PPLKRRLDFETDH [V3L]` — result for “normalised enrichment score”: 0.0934.
For `PPVKRRLDFSTDH [E10S]`, “normalised enrichment score” read -0.0129.

Set 2
Target: Histone acetyltransferase KAT6A, winged helix 2, GST fusion (KAT6A, Homo sapiens, UniProt Q92794, residues 85-181)
Technique: protein binding microarray
Form: double-stranded DNA, one strand shown
Sample: in vitro
Tested at: not given
Notes: 8-mer, flanks averaged, mean of 2 arrays, mostly near background
Relative to: not given
Direction: higher = stronger binding
Residues (chain): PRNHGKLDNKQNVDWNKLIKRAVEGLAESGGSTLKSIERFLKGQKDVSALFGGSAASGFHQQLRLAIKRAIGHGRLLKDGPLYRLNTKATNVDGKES
For `CCGTCTCC`, the E-score was 0.129.
For `AAAGGAGG`, the E-score was 0.04.
For `GTAGCTCA`, the E-score was 0.0589.
With `CCATATAA` the E-score was -0.0614.
`CGTGGCAA` gave an E-score of 0.00626.
`CCAAGTCA` gave an E-score of -0.126.
For `CAAACTGA`, the E-score was -0.00615.
`ACTTAAGG` has an E-score of -0.0741.
`CGGACCCA` gave an E-score of 0.161.
The E-score of `CATTGCTA` is reported as 0.109.
For `ACGAAGCG`, the E-score was -0.119.
With `AGGAAGGC` the E-score was 0.148.
`AACTATCT` gave an E-score of -0.0729.
The E-score of `AAAGACAC` is reported as 0.12.
For `CCTAGGCG`, the E-score was 0.0261.
`AATGGAAC` has an E-score of 0.0356.
The E-score of `CTATCATA` is reported as -0.00895.
The E-score of `AACGAGGT` is reported as 0.018.
The E-score of `ATCAAAGC` is reported as 0.0689.
`GAACTTCA` has an E-score of -0.00726.
With `ATTGAACC` the E-score was -0.0905.
The E-score of `CATGGATC` is reported as -0.157.
With `CAGCGCCA` the E-score was 0.0496.
The E-score of `AATCGCTC` is reported as -0.0364.
With `GATTTGCA` the E-score was 0.0371.

Set 3
Target: Interferon regulatory factor 7, full length, phosphomimetic (IRF7, Homo sapiens, UniProt Q92985, residues 1-503, S101K/S471D/S472D/S475D/S476D/S477D/S483D/S484D/S487D)
Chain of UniProt Q92985 (whole entry, unmodified, looked up): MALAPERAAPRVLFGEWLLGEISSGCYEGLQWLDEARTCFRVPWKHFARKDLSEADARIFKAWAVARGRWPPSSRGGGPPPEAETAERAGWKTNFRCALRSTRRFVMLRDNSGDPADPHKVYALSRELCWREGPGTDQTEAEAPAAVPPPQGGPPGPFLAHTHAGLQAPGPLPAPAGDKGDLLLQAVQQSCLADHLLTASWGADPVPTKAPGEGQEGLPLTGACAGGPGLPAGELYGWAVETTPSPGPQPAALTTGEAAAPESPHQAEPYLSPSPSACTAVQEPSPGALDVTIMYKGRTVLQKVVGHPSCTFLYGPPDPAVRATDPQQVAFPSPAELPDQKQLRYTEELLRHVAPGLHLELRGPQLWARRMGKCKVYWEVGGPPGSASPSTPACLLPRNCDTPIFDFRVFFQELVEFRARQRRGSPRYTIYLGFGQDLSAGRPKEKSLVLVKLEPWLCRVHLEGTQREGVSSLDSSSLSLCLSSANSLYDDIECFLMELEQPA
Technique: protein-binding microarray
Form: double-stranded DNA, one strand shown
Sample: in vitro
Tested at: 250 nM
Notes: 60-bp whole probe
Together with: salmon DNA 0.4 mg/ml
Relative to: random background probes
Direction: higher = stronger binding
Shared flanks, not repeated: GCCTAGCAC … GTCTTGATTCGCTTGACGCTGCTG
`GCGGGAGAAAGCAAGCCCAGGTGCTAG` has a log fluorescence of -0.64 z-score.
For `TTAGATCTCAGTTTCGATGAGTGCTAG`, the log fluorescence was 2.46 z-score.
`GACGGTTTCTGTTTCGGGACGTGCTAG` gave a log fluorescence of 10 z-score.
`TTAGGTACCCTTCTCCTTTAGTGCTAG` has a log fluorescence of 0.732 z-score.
The log fluorescence of `TCACCCCTCTAGGTTCTCACTGTGCTA` is reported as -0.248 z-score.
`GACGTACTGAGTTTCGAGACGTGCTAG` gave a log fluorescence of 3.28 z-score.
For `ATTAGAGGATAACTTACAGAGTGCTAG`, the log fluorescence was -0.136 z-score.
For `TTAGGTTTCGGTCTCGTTTAGTGCTAG`, the log fluorescence was 9.08 z-score.
With `GACGGTCTCGGACTGGGGGCGTGCTAG` the log fluorescence was 0.729 z-score.
`GACGGTCTCCTTTTCCCGACGTGCTAG` has a log fluorescence of 2.03 z-score.
`GACGGGTTCGGTTTCGGGACGTGCTAG` has a log fluorescence of 6.91 z-score.
The log fluorescence of `GACGTACTGGGACTGGGGACGTGCTAG` is reported as 0.0663 z-score.
With `GACGGACTGCTTTTGCTGACGTGCTAG` the log fluorescence was -0.131 z-score.
With `CTGAGTCCCTATCTCCTCACGTGCTAG` the log fluorescence was 0.653 z-score.
The log fluorescence of `GACGGTACCCTACTGCTGACGTGCTAG` is reported as -0.248 z-score.
For `CCCAAGATTGCCGTTTCCTAAGTGCTA`, the log fluorescence was 0.291 z-score.
With `TTAGGTTTCGGACTGAGTTAGTGCTAG` the log fluorescence was 4.08 z-score.
`TTCGGTATCGGTATCGGTTAGTGCTAG` has a log fluorescence of 2.74 z-score.
The log fluorescence of `GACGACCTGGGGACTGGAGACGTGCTA` is reported as -0.575 z-score.

Set 4
Target: PABPC1L2, full length, GST fusion (mouse, UniProt A0ABA7IW68)
Technique: RNAcompete
Form: RNA
Sample: in vitro
Tested at: 20 nM
Notes: 7-mer, probes averaged, single round
Relative to: mean of 7-mers
Direction: higher = stronger binding
For `ACACCCU`, the 7-mer Z-score was -0.195.
For `GCUGUCU`, the 7-mer Z-score was -0.257.
The 7-mer Z-score of `GCAAUAU` is reported as 0.0279.
With `CGUGGGU` the 7-mer Z-score was -0.193.
`AAGUAAU` gave a 7-mer Z-score of 0.0587.
The 7-mer Z-score of `CCAGAAA` is reported as 1.35.
For `CCAGCAG`, the 7-mer Z-score was -0.0373.
`ACAUAGA` gave a 7-mer Z-score of 0.131.
`ACUGCAU` gave a 7-mer Z-score of -0.208.
The 7-mer Z-score of `AGGGCAC` is reported as 0.274.
`CCUCAGC` gave a 7-mer Z-score of -0.354.
With `GCGUCAA` the 7-mer Z-score was -0.012.
`UAUUUUG` gave a 7-mer Z-score of -0.211.
The 7-mer Z-score of `GUUUACA` is reported as -0.215.
The 7-mer Z-score of `AACGGAG` is reported as -0.012.
With `CCUAUAU` the 7-mer Z-score was -0.275.
`UGUUCUG` has a 7-mer Z-score of -0.474.
`CUCACAA` gave a 7-mer Z-score of 0.122.
With `CGCAUGU` the 7-mer Z-score was -0.411.

Set 5
Target: Myc proto-oncogene protein, bHLH-zipper, MAX partner unstated (MYC, Homo sapiens, UniProt P01106, residues 368-449)
Chain of UniProt P01106 (368-449, looked up): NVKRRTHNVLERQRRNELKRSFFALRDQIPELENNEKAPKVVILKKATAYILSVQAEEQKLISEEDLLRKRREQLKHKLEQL
Technique: protein-binding microarray
Form: double-stranded DNA, one strand shown
Sample: in vitro
Tested at: not given
Notes: k-mer, scored over probes, only values ≥0.25
Direction: higher = stronger binding
For `ACGCCTCA`, the E-score was 0.256.
For `AGCGTGTA`, the E-score was 0.322.
For `CCCCGCCA`, the E-score was 0.354.
`CGTGGTGC` gave an E-score of 0.43.
With `ATGACACG` the E-score was 0.373.
For `ACGAGGGG`, the E-score was 0.396.
With `AAACACGA` the E-score was 0.283.
The E-score of `ACCCACGA` is reported as 0.328.
The E-score of `CACCACGC` is reported as 0.446.
For `CGCCGCGC`, the E-score was 0.338.
For `GTGGACAC`, the E-score was 0.28.
`GCATGTGA` has an E-score of 0.422.
With `CCCATGCG` the E-score was 0.444.
`CCATGCGC` has an E-score of 0.435.
The E-score of `CCACATGC` is reported as 0.468.
With `CGTGGGGC` the E-score was 0.348.
For `ACCCTCCC`, the E-score was 0.286.
The E-score of `ACGCGCGC` is reported as 0.285.
With `CGCATGTA` the E-score was 0.402.
With `ATGTCACG` the E-score was 0.325.
For `GGCGGGCA`, the E-score was 0.264.

For quick reference, copied from above (set 1):
Under “normalised enrichment score”, `PPVHRRLDFETDH [K4H]` is recorded as 0.217.
Under “normalised enrichment score”, `PPVKRDLDFETDH [R6D]` is recorded as -0.156.
For `PPWKRRLDFETDH [V3W]`, “normalised enrichment score” read 0.0963.
For `PPVKRRLDFRTDH [E10R]`, “normalised enrichment score” read 0.0399.
Under “normalised enrichment score”, `PPVKRRLDFITDH [E10I]` is recorded as 0.141.
`PPVFRRLDFETDH [K4F]` — result for “normalised enrichment score”: -0.131.
`PPVKWRLDFETDH [R5W]`: “normalised enrichment score” 0.402.
Under “normalised enrichment score”, `PPVKSRLDFETDH [R5S]` is recorded as -0.281.
`PPVKRRFDFETDH [L7F]` — result for “normalised enrichment score”: 0.178.
For `PPVKRRLDHETDH [F9H]`, “normalised enrichment score” read 0.144.
Under “normalised enrichment score”, `PPVKRRLDFPTDH [E10P]` is recorded as -0.0841.
`PCVKRRLDFETDH [P2C]`: “normalised enrichment score” 0.412.
`PPVKRRLDFETYH [D12Y]`: “normalised enrichment score” 0.369.
